Measured values of several laboratories.
Every numbered part comes from another study and shows a few of its results, in no order. Several values in a cell are separate wells, animals, samples, runs or records.
Sequence of UniProt Q6ZWH5 (whole entry, looked up): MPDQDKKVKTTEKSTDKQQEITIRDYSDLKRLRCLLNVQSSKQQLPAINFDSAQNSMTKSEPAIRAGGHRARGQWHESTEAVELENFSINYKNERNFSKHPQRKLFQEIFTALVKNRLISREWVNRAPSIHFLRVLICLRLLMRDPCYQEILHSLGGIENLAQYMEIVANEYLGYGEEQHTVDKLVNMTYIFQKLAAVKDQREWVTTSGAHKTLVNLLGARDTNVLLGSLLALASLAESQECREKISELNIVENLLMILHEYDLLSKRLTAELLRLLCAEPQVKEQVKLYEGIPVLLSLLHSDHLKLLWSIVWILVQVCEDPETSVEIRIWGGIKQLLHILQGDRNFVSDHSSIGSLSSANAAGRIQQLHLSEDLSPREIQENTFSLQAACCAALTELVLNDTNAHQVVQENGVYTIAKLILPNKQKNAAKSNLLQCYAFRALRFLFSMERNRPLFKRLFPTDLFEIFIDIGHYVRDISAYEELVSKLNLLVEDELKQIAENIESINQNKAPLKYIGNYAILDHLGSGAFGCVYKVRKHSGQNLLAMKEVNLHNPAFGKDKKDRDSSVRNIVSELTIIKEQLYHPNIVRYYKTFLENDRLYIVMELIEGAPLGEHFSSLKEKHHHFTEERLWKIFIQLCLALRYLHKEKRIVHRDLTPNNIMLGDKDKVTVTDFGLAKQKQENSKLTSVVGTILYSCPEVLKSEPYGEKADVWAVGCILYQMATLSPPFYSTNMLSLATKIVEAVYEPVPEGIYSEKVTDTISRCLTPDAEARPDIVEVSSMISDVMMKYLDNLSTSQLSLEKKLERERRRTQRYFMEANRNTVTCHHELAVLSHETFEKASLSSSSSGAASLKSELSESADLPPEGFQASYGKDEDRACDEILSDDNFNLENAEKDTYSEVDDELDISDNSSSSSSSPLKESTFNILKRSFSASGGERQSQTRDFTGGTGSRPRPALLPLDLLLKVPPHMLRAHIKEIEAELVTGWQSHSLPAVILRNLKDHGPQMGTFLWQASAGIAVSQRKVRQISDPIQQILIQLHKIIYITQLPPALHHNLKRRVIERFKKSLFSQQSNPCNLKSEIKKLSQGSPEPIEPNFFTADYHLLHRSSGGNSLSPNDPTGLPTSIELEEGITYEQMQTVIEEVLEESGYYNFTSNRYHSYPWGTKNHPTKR
Sequence of UniProt Q9UM73 (whole entry, unmodified, looked up): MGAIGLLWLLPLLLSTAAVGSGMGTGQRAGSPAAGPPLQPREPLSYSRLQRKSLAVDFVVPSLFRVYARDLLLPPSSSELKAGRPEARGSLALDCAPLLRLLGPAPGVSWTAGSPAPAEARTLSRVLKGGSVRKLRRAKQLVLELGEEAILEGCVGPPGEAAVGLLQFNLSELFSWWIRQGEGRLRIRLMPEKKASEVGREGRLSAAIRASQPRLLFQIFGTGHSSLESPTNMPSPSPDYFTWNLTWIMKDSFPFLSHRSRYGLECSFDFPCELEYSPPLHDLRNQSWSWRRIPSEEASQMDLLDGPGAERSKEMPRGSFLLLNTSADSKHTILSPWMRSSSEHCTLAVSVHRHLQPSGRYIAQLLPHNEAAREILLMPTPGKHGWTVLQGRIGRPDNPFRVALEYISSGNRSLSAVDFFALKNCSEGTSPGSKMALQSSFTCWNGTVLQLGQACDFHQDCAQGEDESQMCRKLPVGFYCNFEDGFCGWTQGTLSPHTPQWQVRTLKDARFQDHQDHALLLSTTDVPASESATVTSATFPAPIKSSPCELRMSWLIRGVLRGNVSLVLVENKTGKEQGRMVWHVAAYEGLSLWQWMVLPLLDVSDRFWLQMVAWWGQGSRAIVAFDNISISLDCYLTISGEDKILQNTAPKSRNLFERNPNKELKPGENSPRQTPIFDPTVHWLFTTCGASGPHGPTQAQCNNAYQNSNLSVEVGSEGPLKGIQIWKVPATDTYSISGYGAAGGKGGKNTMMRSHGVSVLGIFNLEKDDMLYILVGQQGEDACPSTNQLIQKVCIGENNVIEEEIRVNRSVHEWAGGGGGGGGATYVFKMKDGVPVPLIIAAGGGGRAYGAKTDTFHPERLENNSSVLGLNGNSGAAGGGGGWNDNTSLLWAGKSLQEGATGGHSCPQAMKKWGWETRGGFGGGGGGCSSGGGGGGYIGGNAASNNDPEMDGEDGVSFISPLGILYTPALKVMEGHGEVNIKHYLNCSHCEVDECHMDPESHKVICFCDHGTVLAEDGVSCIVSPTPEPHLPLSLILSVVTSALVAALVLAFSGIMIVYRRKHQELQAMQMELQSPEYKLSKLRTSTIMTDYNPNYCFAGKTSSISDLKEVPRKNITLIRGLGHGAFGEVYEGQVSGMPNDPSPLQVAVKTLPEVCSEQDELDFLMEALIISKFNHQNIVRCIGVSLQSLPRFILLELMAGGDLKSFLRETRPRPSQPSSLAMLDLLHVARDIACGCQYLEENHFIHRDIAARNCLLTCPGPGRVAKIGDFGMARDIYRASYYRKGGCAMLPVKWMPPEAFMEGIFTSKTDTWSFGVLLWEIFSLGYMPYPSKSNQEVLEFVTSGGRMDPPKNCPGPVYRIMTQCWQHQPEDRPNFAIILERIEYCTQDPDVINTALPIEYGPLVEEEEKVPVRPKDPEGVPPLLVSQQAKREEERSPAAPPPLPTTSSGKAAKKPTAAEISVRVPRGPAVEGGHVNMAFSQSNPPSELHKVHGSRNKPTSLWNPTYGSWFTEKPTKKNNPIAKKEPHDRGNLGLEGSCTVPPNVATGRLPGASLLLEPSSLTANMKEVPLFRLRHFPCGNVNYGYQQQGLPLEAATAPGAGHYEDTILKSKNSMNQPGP
Sequence of UniProt P51955 (whole entry, looked up): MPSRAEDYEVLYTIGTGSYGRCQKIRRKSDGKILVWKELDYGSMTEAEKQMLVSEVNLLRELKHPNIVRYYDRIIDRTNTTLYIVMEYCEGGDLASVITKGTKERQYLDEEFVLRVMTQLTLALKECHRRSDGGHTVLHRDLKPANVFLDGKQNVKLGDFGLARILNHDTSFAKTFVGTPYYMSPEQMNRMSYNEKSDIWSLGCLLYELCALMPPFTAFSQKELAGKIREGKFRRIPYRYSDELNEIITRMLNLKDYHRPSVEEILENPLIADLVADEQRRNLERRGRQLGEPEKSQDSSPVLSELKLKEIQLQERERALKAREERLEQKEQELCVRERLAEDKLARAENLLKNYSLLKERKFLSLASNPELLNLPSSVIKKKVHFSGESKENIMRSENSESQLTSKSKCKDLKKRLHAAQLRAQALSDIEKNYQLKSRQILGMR
Sequence of UniProt P07948 (whole entry, looked up): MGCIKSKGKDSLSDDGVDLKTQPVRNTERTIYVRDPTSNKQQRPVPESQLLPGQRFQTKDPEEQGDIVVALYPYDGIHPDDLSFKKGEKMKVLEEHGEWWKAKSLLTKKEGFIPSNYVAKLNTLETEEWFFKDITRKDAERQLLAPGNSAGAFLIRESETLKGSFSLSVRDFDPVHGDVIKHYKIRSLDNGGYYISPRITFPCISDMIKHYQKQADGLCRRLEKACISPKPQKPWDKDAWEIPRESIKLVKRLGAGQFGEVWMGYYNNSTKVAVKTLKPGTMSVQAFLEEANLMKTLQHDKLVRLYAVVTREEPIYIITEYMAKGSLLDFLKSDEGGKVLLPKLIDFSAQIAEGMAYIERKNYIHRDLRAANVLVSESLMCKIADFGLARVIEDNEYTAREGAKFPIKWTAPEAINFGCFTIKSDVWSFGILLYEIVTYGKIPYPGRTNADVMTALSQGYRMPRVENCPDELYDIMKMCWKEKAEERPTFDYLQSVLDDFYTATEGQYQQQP
Sequence of UniProt P37173 (whole entry, looked up): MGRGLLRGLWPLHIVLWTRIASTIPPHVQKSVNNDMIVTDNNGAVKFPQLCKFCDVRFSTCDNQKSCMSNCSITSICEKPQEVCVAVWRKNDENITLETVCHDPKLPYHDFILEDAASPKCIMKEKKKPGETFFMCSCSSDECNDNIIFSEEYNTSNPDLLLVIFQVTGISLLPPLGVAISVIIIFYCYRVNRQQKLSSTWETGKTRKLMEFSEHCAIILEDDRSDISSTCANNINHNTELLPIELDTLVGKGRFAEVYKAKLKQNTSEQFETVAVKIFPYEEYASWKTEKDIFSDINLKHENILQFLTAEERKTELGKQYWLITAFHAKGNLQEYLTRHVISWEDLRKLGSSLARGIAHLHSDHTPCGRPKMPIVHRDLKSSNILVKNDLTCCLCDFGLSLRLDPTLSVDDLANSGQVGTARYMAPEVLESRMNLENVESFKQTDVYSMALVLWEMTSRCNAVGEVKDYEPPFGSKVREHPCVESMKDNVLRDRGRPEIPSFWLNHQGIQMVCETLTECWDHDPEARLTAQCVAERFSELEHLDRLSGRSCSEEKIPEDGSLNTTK
Sequence of UniProt O95747 (whole entry, looked up): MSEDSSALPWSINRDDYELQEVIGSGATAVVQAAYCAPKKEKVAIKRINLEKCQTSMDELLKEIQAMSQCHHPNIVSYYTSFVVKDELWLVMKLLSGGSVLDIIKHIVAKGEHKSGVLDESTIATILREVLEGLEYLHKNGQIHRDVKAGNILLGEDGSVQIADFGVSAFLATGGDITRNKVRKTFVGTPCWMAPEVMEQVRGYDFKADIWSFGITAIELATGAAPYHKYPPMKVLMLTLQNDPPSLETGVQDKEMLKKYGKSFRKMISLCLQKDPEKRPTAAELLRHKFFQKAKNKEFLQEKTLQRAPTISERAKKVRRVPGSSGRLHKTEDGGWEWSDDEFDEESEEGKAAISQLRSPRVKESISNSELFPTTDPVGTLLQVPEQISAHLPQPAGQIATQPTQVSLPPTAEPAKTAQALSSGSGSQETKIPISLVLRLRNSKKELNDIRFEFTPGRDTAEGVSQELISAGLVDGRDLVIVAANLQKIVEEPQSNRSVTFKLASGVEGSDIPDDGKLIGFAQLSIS

Series 1
Compound: O=C(O)[C@@H]1[C@@H](Cn2nnc3ccccc3c2=O)CC[C@H]1C(=O)c1ccc(OCCC2CCOCC2)cc1
Effect on: cell-free assay
Technique: competition with immobilised ligand
Tested at: 1 µM
target	remaining binding
PTK2 (Homo sapiens, UniProt Q05397)	100%
Ribosomal protein S6 kinase alpha-3, C-terminal kinase domain (RPS6KA3, Homo sapiens, UniProt P51812)	85%
MINK1 (Homo sapiens, UniProt Q8N4C8)	100%
ALK (Homo sapiens, UniProt Q9UM73, L1196M)	93%
RIOK2 (Homo sapiens, UniProt Q9BVS4)	88%
EPHB2 (Homo sapiens, UniProt P29323)	100%
PIK3CA (Homo sapiens, UniProt P42336, H1047Y)	94%
GRK4 (Homo sapiens, UniProt P32298)	100%
NEK10 (Homo sapiens, UniProt Q6ZWH5)	88%
FLT3 (Homo sapiens, UniProt P36888, D835V/ITD)	100%
MAP3K19 (Homo sapiens, UniProt Q56UN5)	84%
MAP3K12 (Homo sapiens, UniProt Q12852)	98%
Ribosomal protein S6 kinase alpha-6, C-terminal kinase domain (RPS6KA6, Homo sapiens, UniProt Q9UK32)	100%
HIPK4 (Homo sapiens, UniProt Q8NE63)	100%
FLT3 (Homo sapiens, UniProt P36888, K663Q)	100%
MERTK (Homo sapiens, UniProt Q12866)	100%

Series 2
Compound: N#C/C(=C\c1ccc(O)c(O)c1)C(=O)NCc1ccccc1
Effect on: enzyme activity
Mode: inhibitor
Tested at: 0.5 µM
Baseline: control
target	remaining activity [%]
CAMK2D (Homo sapiens, UniProt Q13557)	104
TGFBR2 (Homo sapiens, UniProt P37173)	111
PRKCA (Homo sapiens, UniProt P17252)	99.1
TGFBR1 (Homo sapiens, UniProt P36897)	97.6
CAMKK2 (Homo sapiens, UniProt Q96RR4)	97.4
Protein kinase C beta type, isoform beta-I (PRKCB, Homo sapiens, UniProt P05771)	91
OXSR1 (Homo sapiens, UniProt O95747)	101
Cyclin-dependent kinase 5, with p25 (CDK5, Homo sapiens, UniProt Q00535)	101
Cyclin-dependent kinase 4, with cyclin D1 (CDK4, Homo sapiens, UniProt P11802)	109
NEK2 (Homo sapiens, UniProt P51955)	102
IKBKB (Homo sapiens, UniProt O14920)	103
DAPK1 (Homo sapiens, UniProt P53355)	99.7
DAPK2 (Homo sapiens, UniProt Q9UIK4)	98.5
Tyrosine-protein kinase Lyn, isoform B (LYN, Homo sapiens, UniProt P07948)	105
STK10 (Homo sapiens, UniProt O94804)	89.6
cGMP-dependent protein kinase 1, isoform beta (PRKG1, Homo sapiens, UniProt Q13976)	92.6
CHEK2 (Homo sapiens, UniProt O96017)	97.5
IKBKE (Homo sapiens, UniProt Q14164)	105
PRKACA (Homo sapiens, UniProt P17612)	104
GRK3 (Homo sapiens, UniProt P35626)	91.4
MAPK9 (Homo sapiens, UniProt P45984)	103
STK39 (Homo sapiens, UniProt Q9UEW8)	99.8
MAP3K3 (Homo sapiens, UniProt Q99759)	102

Series 3
SMILES: COc1cc(C(=O)OCCCN2CCCN(CCCOC(=O)c3cc(OC)c(OC)c(OC)c3)CC2)cc(OC)c1OC
Technique: von Frey test
effect on	host	route	dose	time	setting	paw withdrawal threshold
mechanical pain	mouse, STZ diabetic neuropathy	intravenous	30 mg/kg	5 h post-dose	first injection, day 8	0.23 g and 0.17 g and 0.13 g and 0.15 g and 0.32 g
	mouse, CFA inflammatory pain	intravenous	dose not given	5 h post-dose	first injection, day 1	0.23 g and 0.44 g and 0.32 g
mechanical pain	mouse, STZ diabetic neuropathy	intravenous	30 mg/kg	5 h post-dose	third injection	0.23 g and 0.13 g and 0.29 g and 0.05 g
	mouse, CFA inflammatory pain	intraplantar	10 µg	24 h post-dose	day 3 after CFA	0.23 g and 0.29 g and 0.17 g and 0.19 g and 0.32 g
	mouse, CFA inflammatory pain	subcutaneous	10 mg/kg	3 h post-dose	third injection, day 5	0.32 g and 0.23 g and 0.4 g
	mouse, CFA inflammatory pain	intravenous	dose not given	24 h post-dose	third injection, day 5	0.19 g and 0.32 g and 0.23 g and 0.4 g
	mouse, CFA inflammatory pain	intravenous	dose not given	5 h post-dose	third injection, day 5	0.32 g and 0.23 g and 0.4 g
	mouse, CFA inflammatory pain	intraplantar	10 µg	3 h post-dose	day 3 after CFA	0.19 g and 0.51 g and 0.65 g and 0.44 g

Series 4
Host: mouse
Sample: microsomes or S9
Tested at: 2 µM
Time: 0.5 h
SMILES	remaining compound
O=C(c1c(F)cccc1F)N(Cc1n[nH]c(=O)[nH]1)c1ccccc1	63.7%
Brc1ccc(OCCn2cc(/C=N/n3cnnc3)c3ccccc32)cc1	44.2%
O=C(Nc1ccc2nc(N3CCN(c4ccccc4)CC3)cc(C(=O)O)c2c1)c1ccccc1F	69.5%
COc1cc(OC)cc(N2CCC(N(C)C(=O)Cc3c(N)nc(C)[nH]c3=O)C2)c1 (centres unmarked)	71.1%
CC(C)OCCCN(C)C1CCN(S(=O)(=O)c2ccc3[nH]c(=O)ccc3c2)CC1	99.9%
CCNC(=O)Nc1ccc2c(cnn2-c2cc(C(C)=O)c(Cl)cc2Cl)c1	1.57%
CCCc1cc(C(=O)N(C)CC2Cc3ccccc3CN2C)[nH]n1 (centres unmarked)	16%
CCOc1ccc(OCC)c(NC(=O)c2cc(S(=O)(=O)N3CCOCC3)cn2C)c1	22.8%
COc1cc(=O)n(-c2ccccc2)cc1C(=O)N1CCC(N2CCc3ccccc3C2)C1 (centres unmarked)	73.6%
COCC(C)N(Cc1cc(OC)cc(OC)c1)C(=O)CCCC(C)=O (centres unmarked)	7.77%
c1cc2c(ccn2-c2ccc3ccnc(N4CCCC4)c3c2)cn1	5.01%
O=C(Nc1cc(Br)cc2c1N(c1ncccn1)CC2)c1ccccc1	0.625%

Repeated from above (series 3):
effect on	host	route	dose	time	setting	paw withdrawal threshold
mechanical pain	mouse, STZ diabetic neuropathy	intravenous	30 mg/kg	5 h post-dose	first injection, day 8	0.23 g and 0.17 g and 0.13 g and 0.15 g and 0.32 g
	mouse, CFA inflammatory pain	intravenous	dose not given	5 h post-dose	first injection, day 1	0.23 g and 0.44 g and 0.32 g
mechanical pain	mouse, STZ diabetic neuropathy	intravenous	30 mg/kg	5 h post-dose	third injection	0.23 g and 0.13 g and 0.29 g and 0.05 g
	mouse, CFA inflammatory pain	intraplantar	10 µg	24 h post-dose	day 3 after CFA	0.23 g and 0.29 g and 0.17 g and 0.19 g and 0.32 g
	mouse, CFA inflammatory pain	subcutaneous	10 mg/kg	3 h post-dose	third injection, day 5	0.32 g and 0.23 g and 0.4 g
	mouse, CFA inflammatory pain	intravenous	dose not given	24 h post-dose	third injection, day 5	0.19 g and 0.32 g and 0.23 g and 0.4 g
	mouse, CFA inflammatory pain	intravenous	dose not given	5 h post-dose	third injection, day 5	0.32 g and 0.23 g and 0.4 g
	mouse, CFA inflammatory pain	intraplantar	10 µg	3 h post-dose	day 3 after CFA	0.19 g and 0.51 g and 0.65 g and 0.44 g
